# Published values gathered from unrelated publications.
# Every numbered part comes from another study and shows a few of its results, in no order.

# Series 1
# Target: Ras GTPase-activating protein-binding protein 1, full length (G3BP1, Homo sapiens, UniProt Q13283)
# Chain of UniProt Q13283 (whole entry, looked up): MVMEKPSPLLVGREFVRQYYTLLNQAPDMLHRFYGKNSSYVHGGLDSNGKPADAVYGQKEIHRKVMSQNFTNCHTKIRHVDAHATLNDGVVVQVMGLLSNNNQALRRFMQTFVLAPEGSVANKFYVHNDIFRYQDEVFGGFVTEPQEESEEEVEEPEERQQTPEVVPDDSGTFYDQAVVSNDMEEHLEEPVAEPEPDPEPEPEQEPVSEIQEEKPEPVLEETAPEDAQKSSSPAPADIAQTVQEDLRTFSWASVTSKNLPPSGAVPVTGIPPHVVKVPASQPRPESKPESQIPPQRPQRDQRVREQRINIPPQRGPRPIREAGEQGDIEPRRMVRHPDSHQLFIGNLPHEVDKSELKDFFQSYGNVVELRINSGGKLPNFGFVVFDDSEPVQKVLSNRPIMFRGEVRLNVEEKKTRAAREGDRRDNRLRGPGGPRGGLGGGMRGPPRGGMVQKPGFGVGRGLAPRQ
# Method: RNA Bind-n-Seq
# Form: RNA
# Medium: in vitro
# Tested at: 200 nM
# Setting: whole 134-nt RNA, ends assumed
# Together with: 150 mM LiCl
# Reference: input library
# Direction: higher = stronger binding
# Each molecule: 7-deaza-guanosine replaces G
# Shared flanks, not repeated: GGGAGUUCUACAGUCCGACGAUC … UGGAAUUCUCGGGUGUCAAGG
Strand,log2 enrichment
CACAGACAACACGCACCCACACAGACACAGAGGGAAGGGGUUGGCAUGGGGACAGGGUGCACAGCAGGGCGGGGUAGGACCCCAGCCCCU,-1.12
UGGGAGGUGGAUUUUGUUUAUUUUUUUAGCUCAUUUCAAGGGGUGGGAAUUUUUUUUUAAUAUGUGUCAUGAAUAAAGUUGUUUUUGAAA,0.542
UAACUUUAGAGGAGGAUCUGAUGGAUAUGGCAGUGGACGUGGAUUUGGGGAUGGCUUUAAUGGGUAUGGAGGAGGACCUGGAGGUGGCAA,-0.258
AAGUCCUGUGCUACACAUCGUAUGUACCGAAUCGGGUUUUGGGUUUUGGUUUUGGGAAAGUAUUAUGUUACGCCGUUCGGAUCUGCACUU,-0.892
CUCAAGUCCUGUGCUACACAUCGUAUGUACCGAAUCGGAAAGGAAAGGGAAAGGAAAGUAUUAUGUUACGCCGUUCGGAUCUGCACUUCC,0.0082
UGGCCCUGGUGGCAUGCGGGGAGGAAGAGGUGGCCUCAUGGAUCGUGGUGGUACCGGUGGAAUGUUCAGAGGUGGCCGUGGUGGAGACAG,0.364
CAAGUCCUGUGCUACACAUCGUAUGUACCGAAUCGGGAAAAGGAAAAGGAAAAGGAAAGUAUUAUGUUACGCCGUUCGGAUCUGCACUUC,-0.705
CACAGACAACACGCACCCACACAGACACAGAGGGAAGGGGUUGGGAUGGGGACAGGGUGCACAGCAGGGCAAAGUAGGACCCCAGCCCCU,0.125
GUCCUGUGCUACACAUCGUAUGUACCGAAUCGGGUGGGAAAAAAAGGGUUUUUUUGGGAAAGUAUUAUGUUACGCCGUUCGGAUCUGCAC,-0.569
CACAGACAACACGCACCCACACAGACACAGAGGGAAGGGGUUGGGAUGGGGACAGGGUGCACAGCAGGGCGGGGUUGGACCCCAGCCCCU,0.878
ACCAUGCACGUGGGCAUCUUUGGGAAGUGGGGCAAGGGGGGGAUAGGGAGGGGGGUAACACUUUGGGAACAGGUGGUCCCAGGUCGUUUC,0.0496

# Series 2
# Target: RNA binding protein fox-1 homolog 2, RRM domain, GST-SBP tag (RBFOX2, Homo sapiens, UniProt O43251-10, residues 100-194)
# Method: RNA Bind-n-Seq
# Form: RNA
# Medium: in vitro
# Tested at: 365 nM
# Setting: natural RNA segment, single round, ends assumed
# Reference: no-protein control
# Direction: higher = stronger binding
# Shared flanks, not repeated: GGGAGUUCUACAGUCCGACGAUC … UGGAAUUCUCGGGUGCCAA
# Target sequence (chain): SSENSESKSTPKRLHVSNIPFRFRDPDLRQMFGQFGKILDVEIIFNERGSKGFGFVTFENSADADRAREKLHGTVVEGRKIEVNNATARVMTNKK
Strand,RBNS enrichment (R)
GCACUUGUAAACAUACGACAUGAUGUUAAAAUUGAAAGCAGGACUGAACUAACGUAUUCAAUAUUGAAUAUGUAGAUAUCAGUAGUCAAGUAGGAUAUUUCUUUAGAUUG,0.409
UCUGUUCUCAGAGACUCACCCCCAGCCCUGACCCUAGAAUUUAGGGAUAGCCAGGAAGUUUCUAGUUUGUGUAACCUAGAAGGGUCACUUUAAUAAAAAUUGUUAUGAAC,0.347
CUCAGGCCUUAGGGUGUAUUUGUCUUUCAGGAAGAUCAUAAUGGACAGAGAUCCUUGGAGGUUCAAAGACCAAGUACCAGACUGGAAAAUUGAGUCUGAAAGCCACAAGG,0.534
AUUACAAGAUUUGGCAGCCAUGAUAAUAGGUCAUAUGUUGUAUUUCGUUUGAUUUUUUUUCUGUAAAUGUCUGCACUAAGGGUUUCUUUCAGUUUGCCUUUUAUGUAAAU,0.712
AGCCAGUCCCGUGGCCACUUCAGCCCUUUUCCAUCCUCUUUUUAUGACGGUGUGUGUGAGAGAGUGGUGGGGCGGGGUGAGAAAUUCUCUGUCCUUUUGUCUACACAUGC,0.315
CCACAGGCCAGCACACGGUGGGGAAGGCAGGCCCAUGGCCUCCUGAGUUCAGAGGCAGCCGGAGCCUGGGGAGCCAUGCCCCAGGCCCUGUGACAUCCCCUCGCCCUGCA,12.6
GUUCCCAUCUCACCUCACCAUUCCGCUAUAAGGCUUUUUAGCAUUUUAGGGCCAGGAGAGAGAGAGAGAGAGAGAAGCCCCUUCGGGUUUGAAAAUGAAGGACUGCCUUG,0.329
GGCUUUGGUCUGGGCAGUGCAUGUGUUAGUAGUGUACGUGGGCAGGUCGGGCUUUCUAAGCUUUGUCAGAUAACUAUUUUUCCUAAGUAUGUGUUUCCUACUCCAGUGAU,1.18
GCCUCAUUUGCUCUUUGAACGAACCAACAUUAGCCAGUGGAGACGACUGUCUGAGACAGUUUGCACAUAGAAAAAGCAUCUGAGCCACUGGAGGGAAGGAUUUGGCAAAG,1.81
GCUCGUAGUCCAGCGCCUGACUCUGCGUCGGCCCAUCCCACGCUGGGGCCAGCAGAAAGAAGACAGGCUGUCCAGGCCGCACCCGCUGCAGUGGGGCACCAGCCGGCCAC,0.341
AACAAAAAUAGAAGACAAAAGAAAGACAUAUGAAAGGAAUUGUAAUUGGCUUAACAGAAACAGUCUGUAAAAACCUAACAGUGGUGCAAUCAUGUUGUCUGUGUUGUGUU,0.418
AAAAUGUAGGCUUAGUUUGUGUGUUGUCUCUUGAGUUUGUCGCUCAUGUGUGCAACAGGGUAUGGACUAUCUGUCUGGUGGCCCCGUUUCUGGUGGUCUGUUGGCAGGCU,0.468

# Series 3
# Target: RING finger protein unkempt homolog, zinc fingers 1-6, SBP tag (UNK, Homo sapiens, UniProt Q9C0B0, residues 30-357)
# Chain of UniProt Q9C0B0 (30-357, looked up): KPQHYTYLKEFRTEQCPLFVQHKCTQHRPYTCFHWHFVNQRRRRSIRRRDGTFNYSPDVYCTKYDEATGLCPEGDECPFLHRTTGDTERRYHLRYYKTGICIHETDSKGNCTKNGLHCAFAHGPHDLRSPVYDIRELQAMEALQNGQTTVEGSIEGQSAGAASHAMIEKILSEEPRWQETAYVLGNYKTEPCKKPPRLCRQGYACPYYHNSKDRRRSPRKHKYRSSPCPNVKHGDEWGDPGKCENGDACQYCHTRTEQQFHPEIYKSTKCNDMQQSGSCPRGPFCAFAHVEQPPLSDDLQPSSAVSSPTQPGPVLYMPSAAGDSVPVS
# Method: RNA Bind-n-Seq
# Form: RNA
# Medium: in vitro
# Tested at: 100 nM
# Setting: RNA with constant flanks, vertebrate orthologous sites, ends assumed
# Reference: input RNA pool
# Direction: higher = stronger binding
# Shared flanks, not repeated: GGGAGUUCUACAGUCCGACGAUC … CAACAGAGGAUUGAGCAUCA
Strand,bound/input enrichment [ratio]
GGGACGUUUUGAUGUAAAAAUUGAAGUUAAGAGCUGAUCACAAGCACAAAUCUUUCCCACUAGCCAUUUAAUAAGUUAAAAAAAGAUACAAAAACAAAAACCUACUAGUCUUGAACAAAC,2.99
AAAUUUAUUUCAUGCCCUGGACCCCCUAUCGUACUGAUACUUUAAUAGAAUAUGCUUCUUUAGAAGAUUUCCAAAACAGUCGCCAAACAACAACGUAUAAACUUCCAAAUCGAGUAGAUG,1.29
AUGAUUUUUUUUCUUAUUAUUAUUAUGUUUUUUUCCUUGCUGAAGUAUGCUAUACCAAAACAGUGCGUGGUUACCAUGAAUUAAUCUGUUAUGGAUGUUGCUCUAGUGACAUGCGGUUCU,0.859
CCUUCUGUAGAGAACAAUUUUCACUAAAGCCAUUGACAAAUUCCCCCCACCAGACUUUUCUUUGGAGCUCUUUCAUUUCGUACAAUCUUGCUGUGUUGGUCAUUGUUAGCCCUGAAUCCA,0.914
GUGCAAGGAGAUUAUUCCAACUAGUGAAUUUAUUAACAGUAAGUUGACAGCAAAAGCAAAUAGGCAGCUUCAAGAUCCUUUAGUAAUCAUGACAGGAAACAUCCCGACGUGGCUGACUGA,0.639
ACAGGAGCAGCAUAGACUAUAUGAGCUUUGGGGAAAUGAGCUUUGCUUUUUAUUUUUGAAUAGGAUACUUUUAUAUGAUGGGUGCUUUGAGUGUGAAUACAGCAGGCUCUUCAUUUGAGA,1.88
AGGAAAUGCUGGCUGCAAACCCUCAGGAUCGUCCAGAUGCUUUUGAACUAGAACUCAGAUUAGUACAAAUUGCAUUUAAAGACAGCAGCUGGGAAACGUGACACAUAUAUUAUUUGCAAA,0.898
UUGUUUUUGUUUUGCACAUGACAGUGUGUGUAUUGAUCUGAGAAAGGAGGAGGGGUGCUGGCGCAGUUGGCCUCCAGUGCCCCCCACCCUCAACACCCCACCUGGUAUCUUUGCCACGUU,0.229
GGGGUGGGGCCAGUGGGGGAAUUCCCUGCCUUGGCCUCGCUUCUCCCUGCCACCUGCCCCUAGUUAUUUUUUUUUUAACCACCAUGUGAUUAAGGUCGGGUAUUACCUCCCCUGACCUGC,2.58
UUGAUGAUUUUCAAUCUCUUUUCCCUUACCCUGAUUUUAAAAGCCUUUUUUUUUUUUUAGGCAUAUAUAGUAAUAUUAGCAGAAAGAUUUAAUUUGGGCAACUUUGAUUCUUAAAAGAGA,0.291
AAGAUGGUGGUUGUACAUUAUUUCAUUUAGAAAAUAUAAAAAUUCAUUUUGUUUUGAAGCUAGGUGUUAAACUGGAGUAGCUAUAUUAUACCCCUAGAGAAUGGGGCAGUUGUGCCCUUC,2.93

# Series 4
# Target: Sal-like protein 4, full length isoform B (SALL4, Homo sapiens, UniProt Q9UJQ4-2, residues 1-616)
# Method: universal PBM
# Form: double-stranded DNA, one strand shown
# Medium: in vitro
# Tested at: not given
# Setting: 8-mer, flanks averaged, mean of replicates
# Direction: higher = stronger binding
# Target sequence (chain): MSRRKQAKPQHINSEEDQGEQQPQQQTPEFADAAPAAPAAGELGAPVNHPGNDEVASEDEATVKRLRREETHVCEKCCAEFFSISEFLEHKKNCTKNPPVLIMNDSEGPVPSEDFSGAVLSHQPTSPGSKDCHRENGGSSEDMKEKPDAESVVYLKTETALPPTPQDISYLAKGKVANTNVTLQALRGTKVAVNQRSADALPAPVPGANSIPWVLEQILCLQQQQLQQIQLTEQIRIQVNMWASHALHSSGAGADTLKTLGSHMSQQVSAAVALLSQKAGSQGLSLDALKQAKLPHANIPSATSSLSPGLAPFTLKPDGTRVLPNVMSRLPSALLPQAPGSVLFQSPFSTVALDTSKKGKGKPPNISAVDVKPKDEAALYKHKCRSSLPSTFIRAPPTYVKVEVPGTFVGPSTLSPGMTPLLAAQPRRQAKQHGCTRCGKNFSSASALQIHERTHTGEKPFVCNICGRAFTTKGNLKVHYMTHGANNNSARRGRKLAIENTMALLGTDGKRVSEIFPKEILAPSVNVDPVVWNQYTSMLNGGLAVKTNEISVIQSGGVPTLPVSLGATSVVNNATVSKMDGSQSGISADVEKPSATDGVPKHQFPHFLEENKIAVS
Strand,E-score
ATCCTGTG,0.0221
CCGTAATA,0.243
AGGGATTC,-0.2
CCAGCAAG,-0.0975
ATTAGGGG,0.0675
TAAGCTGA,0.0571
CAGTATGA,0.177
AGAACAAA,0.282
AAGGATCA,0.00865
CTGAGAAG,-0.151
ATGAACCC,-0.0893
ACGGTGAG,-0.15
TTAGCAAA,0.133
AGGGATAA,0.129
GATTGCGA,-0.00423
AGGTAACC,-0.104
AACCGGCT,-0.125
CGGATTTC,-0.195
AGGTTAGA,-0.108
AGGTTTAG,-0.0948

# For quick reference, copied from above (series 3):
Strand,bound/input enrichment [ratio]
ACAGGAGCAGCAUAGACUAUAUGAGCUUUGGGGAAAUGAGCUUUGCUUUUUAUUUUUGAAUAGGAUACUUUUAUAUGAUGGGUGCUUUGAGUGUGAAUACAGCAGGCUCUUCAUUUGAGA,1.88
AAGAUGGUGGUUGUACAUUAUUUCAUUUAGAAAAUAUAAAAAUUCAUUUUGUUUUGAAGCUAGGUGUUAAACUGGAGUAGCUAUAUUAUACCCCUAGAGAAUGGGGCAGUUGUGCCCUUC,2.93
UUGAUGAUUUUCAAUCUCUUUUCCCUUACCCUGAUUUUAAAAGCCUUUUUUUUUUUUUAGGCAUAUAUAGUAAUAUUAGCAGAAAGAUUUAAUUUGGGCAACUUUGAUUCUUAAAAGAGA,0.291
UUGUUUUUGUUUUGCACAUGACAGUGUGUGUAUUGAUCUGAGAAAGGAGGAGGGGUGCUGGCGCAGUUGGCCUCCAGUGCCCCCCACCCUCAACACCCCACCUGGUAUCUUUGCCACGUU,0.229
GGGGUGGGGCCAGUGGGGGAAUUCCCUGCCUUGGCCUCGCUUCUCCCUGCCACCUGCCCCUAGUUAUUUUUUUUUUAACCACCAUGUGAUUAAGGUCGGGUAUUACCUCCCCUGACCUGC,2.58
AUGAUUUUUUUUCUUAUUAUUAUUAUGUUUUUUUCCUUGCUGAAGUAUGCUAUACCAAAACAGUGCGUGGUUACCAUGAAUUAAUCUGUUAUGGAUGUUGCUCUAGUGACAUGCGGUUCU,0.859
